Measurements gathered from unrelated publications.
Parts stem from different laboratories: compare values within a part only.

Sample 1
Target: Sal-like protein 4, full length isoform B (SALL4, Homo sapiens, UniProt Q9UJQ4-2, residues 1-616)
Method: universal PBM
Form: double-stranded DNA, one strand shown
Sample: in vitro
Concentration: not given
Notes: 8-mer, flanks averaged, mean of replicates
Reading: higher = stronger binding
Strand | E-score
GCTCTTAC | -0.0982
AAATGCAG | -0.0115
CCCCCTAA | -0.0444
GTAATAAC | 0.386
TAGGTGGA | 0.162
ACATATTG | 0.302
CACATAAG | 0.19
TAGCTACA | 0.171

Sample 2
Target: RNA binding protein fox-1 homolog 2, RRM domain, GST-SBP tag (RBFOX2, Homo sapiens, UniProt O43251-10, residues 100-194)
Method: RNA Bind-n-Seq
Form: RNA
Sample: in vitro
Concentration: 365 nM
Notes: natural RNA segment, single round, ends assumed
Relative to: no-protein control
Reading: higher = stronger binding
All sequences stand within: GGGAGUUCUACAGUCCGACGAUC … UGGAAUUCUCGGGUGCCAA
Construct (chain): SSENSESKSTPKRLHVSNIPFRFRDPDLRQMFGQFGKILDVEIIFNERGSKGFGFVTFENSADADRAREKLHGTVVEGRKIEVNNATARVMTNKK
Strand | RBNS enrichment (R)
CAUGGAGAGCCUCUUAGUGAUUGUGUCUGCAUUGUUAUUGUGGAAGAUUUACCUUUUCUGUUGUACGUAAAGCUUAAAUUGCUUUUGUUGUGACUUUUUAGCCAGUGACU | 0.339
GCAAAAAACCCUGUAAAUCAGGAGAUAUAAGCACAUCUGCACCCAGAAUAGGCCCAUAUGAUAGGGCAACCCUGAGCUUAAACAAUGACAUCUUCAAGGGUAGAACUAAU | 0.641
GGUGGCUGUCUUGGAACUGGGAGACAGGUCCUCAGAGGUGCACUCAGGCAACAGGACAGCCAUCUCUCUGCUUCAGCCCUCUGCCUACAGGGAUUAGGGAAAUGGAGCUC | 0.286
UUUUUUAAUAUUUGGAGCAUGAGUUGUCACUUCUUGUUUGCCUUUUUUAUAAGGAAAUGUUGGAGAGUUACAUCAUUGCUAAUGUAGAAAUGUUAAGUGGAAAAAUAUAC | 0.795
CUGCUCACAUCUGCCUGCAAGUCUUUCCAGUACUCCUGGGAUAUCCUGUAAUAGACUCGGGUCCUGUCCACGGCCCUGGCCGCCCACAAUCCAGCCCACAAAUCCACAUG | 0.297
CUGUACAAACUUUGGGCCCGAUUCAUAAGAAAGAAGUUUGCUAUUAACACGGGAUUUUAAAAAAUAUGCUCUCUCUCUCUCUGCUCUCUCUCUCUCUCUAAAUUUGGAUA | 0.855
AGGUGUGCCUUGUGUCUGUGCUUCUCCGCUCUCUGAAAGGAUGGAUGGAUCUGAAGUUCUCAGCCCUCACCCCACACUGCUGGAAUCUUCUGUAGAGCUGCCUGCCAAGC | 0.249
CCCAUCUGGGCUGUCUCUGCAGGGCAGAGCCGUCCAGACCUGGGAUCAGGGAAGCUGCUGGCAUCGUCCCCACCCCCAGCCUGGGGGUCUGGGCUGGGGCAGGGAUUGCU | 0.221

Sample 3
Target: Ras GTPase-activating protein-binding protein 1, RRM domain (G3BP1, Homo sapiens, UniProt Q13283)
Sequence of UniProt Q13283 (whole entry, looked up): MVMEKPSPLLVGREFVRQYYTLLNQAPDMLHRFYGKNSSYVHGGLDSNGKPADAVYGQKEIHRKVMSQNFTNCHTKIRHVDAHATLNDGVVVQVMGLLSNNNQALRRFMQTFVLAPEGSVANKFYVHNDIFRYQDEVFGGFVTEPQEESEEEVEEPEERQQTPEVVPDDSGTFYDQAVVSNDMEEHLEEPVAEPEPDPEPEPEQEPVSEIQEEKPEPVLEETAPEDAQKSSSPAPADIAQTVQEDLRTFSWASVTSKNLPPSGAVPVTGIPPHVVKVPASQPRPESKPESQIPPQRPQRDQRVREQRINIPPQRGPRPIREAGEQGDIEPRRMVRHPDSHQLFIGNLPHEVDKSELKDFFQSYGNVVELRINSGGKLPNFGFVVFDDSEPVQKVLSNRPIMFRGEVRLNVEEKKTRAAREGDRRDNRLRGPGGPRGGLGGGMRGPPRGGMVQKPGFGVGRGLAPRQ
Method: RNA Bind-n-Seq
Form: RNA
Sample: in vitro
Concentration: 1 µM
Notes: whole 134-nt RNA, ends assumed
Added: 150 mM KCl
Relative to: input library
Reading: higher = stronger binding
All sequences stand within: GGGAGUUCUACAGUCCGACGAUC … UGGAAUUCUCGGGUGUCAAGG
Strand | log2 enrichment
CAAGUCCUGUGCUACACAUCGUAUGUACCGAAUCGGGAGGGAAAAAGGGAAAGGGAAAGUAUUAUGUUACGCCGUUCGGAUCUGCACUUC | 0.95
CUGUGCUACACAUCGUAUGUACCGAAUCGGGAAAAAAAGGGGAAAAAAAGGGGAAAAAAAGGAAAGUAUUAUGUUACGCCGUUCGGAUCU | 0.137
AGUCCUGUGCUACACAUCGUAUGUACCGAAUCGGGAAAAAAAGGGAAAGGGAAAGGGAAAGUAUUAUGUUACGCCGUUCGGAUCUGCACU | 0.348
UACCUGAUCAAUGACAGAGCCUUCUGAGGACAUUCCAAGACAGUAUACAGUCCUGUGGUCUCCUUGGAAAUCCGUCUAGUUAACAUUUCA | -0.209
CUCAAGUCCUGUGCUACACAUCGUAUGUACCGAAUCGGGGCGGGGCGGGGCGGGAAAGUAUUAUGUUACGCCGUUCGGAUCUGCACUUCC | 0.678
AGUCCUGUGCUACACAUCGUAUGUACCGAAUCGGGAAAAAGGGUUUUUUUGGGAGGGAAAGUAUUAUGUUACGCCGUUCGGAUCUGCACU | 0.549
AGUCCUGUGCUACACAUCGUAUGUACCGAAUCGGGAGGGAAAAAAAGGGAAAAAGGGAAAGUAUUAUGUUACGCCGUUCGGAUCUGCACU | 0.584
CCUCAAGUCCUGUGCUACACAUCGUAUGUACCGAAUCGGGGUGGGGUGGUGGAAAGUAUUAUGUUACGCCGUUCGGAUCUGCACUUCCAG | -0.224

Sample 4
Target: Replicase polyprotein 1ab, polymerase (rep, Severe acute respiratory syndrome coronavirus 2, UniProt P0DTD1)
Read-out: enzyme activity
Action: inhibitor
Concentration: 20 µM
Structure (SMILES) | inhibition
c1cc(CN2CCCNCCNCCCNCC2)ccc1CN1CCCNCCNCCCNCC1 | -4.09%
N#CC1(c2ccc(NC(=O)c3cccnc3NCc3ccncc3)cc2)CCCC1 | -0.97%
Oc1cc(O)c2cc(O)c(-c3cc(O)c(O)c(O)c3)[o+]c2c1 | 91.8%
CC(C)NCC(O)COc1ccc(COCCOC(C)C)cc1 (centres unmarked) | -3.64%
COc1cc2c(cc1O)CC[C@@H]1[C@@H]2CC[C@]2(C)[C@@H](O)CC[C@@H]12 | -4.66%
NC/C(=C/F)CCc1ccc(F)cc1 | -0.38%
O=c1ccn([C@@H]2O[C@H](COP(=O)(O)OP(=O)(O)OP(=O)(O)O)[C@@H](O)[C@H]2O)c(=O)[nH]1 | -8.02%
CC12CC3CC(C)(C1)CC(N)(C3)C2 | 15%
O=C1c2cccc3c2[C@H](CCC3)CN1[C@@H]1CN2CCC1CC2 | -1.52%
COc1ccc(CCC(=O)Nc2nc3ccc(Cl)cc3s2)cc1OC | -6.68%
O=C(/C=C/C=C/c1ccc2c(c1)OCO2)N1CCCCC1 | 2.81%
COc1ccc(/C=C\c2cc(OC)c(OC)c(OC)c2)cc1OP(=O)(O)O | 1.86%
CNCc1ccc(-c2[nH]c3cc(F)cc4c3c2CCNC4=O)cc1 | 36.6%
Fc1ccc(C(c2ccccc2)(c2ccccc2F)n2ccnc2)cc1 (centres unmarked) | -7.12%
C[C@@H]1COC(Nc2ccc3ncnc(Nc4ccc(OCc5nccs5)c(Cl)c4)c3c2)=N1 | -2.96%
CCCCc1ccc(O)cc1O | -0.04%
O=P(O)(O)C(O)(Cn1ccnc1)P(=O)(O)O | -0.27%
Cc1[nH]c2ccc(Cl)cc2c1C1=CCNCC1 | -1.31%
CC(=O)NCCc1c[nH]c2ccccc12 | -20%
COC(=O)[C@H](CC(C)C)NC(=O)[C@@H](N)CC(C)C | -6.8%
O=C1CSC(c2ccccc2Cl)c2cc(Cl)ccc2N1 (centres unmarked) | -15.7%
NCCC[C@H](N)C(=O)O | -19.1%
CCC(=O)N1CCOc2c(cc(-c3ccc(OC)c(OC)c3)cc2OC[C@H]2CCCN(C)C2)C1 | -2.65%
Cc1noc(NS(=O)(=O)c2cccc3c(N(C)C)cccc23)c1C | -2.77%
CCN(CC)CCCN(c1ccccc1)C1Cc2ccccc2C1 | -1.78%

Sample 5
Cell line: HEK-293T
Read-out: pseudovirus infection
Method: FDA-approved drug library screen
Organism: VSV pseudotyped with SARS-CoV-2 spike
Concentration: 10 µM
Time: 16 h
Relative to: vehicle-treated
Structure (SMILES) | GFP-positive cells
C[C@H](CS)C(=O)N1CCC[C@H]1C(=O)O | 78%
CC(=O)N[C@@H](CS)C(=O)O | 68.8%
CCOc1ccccc1OCCN[C@H](C)Cc1ccc(OC)c(S(N)(=O)=O)c1 | 105%
Cc1nnc(NS(=O)(=O)c2ccc(N)cc2)s1 | 82%

Sample 6
Target: Replicase polyprotein 1ab, main protease (rep, Severe acute respiratory syndrome coronavirus 2, UniProt P0DTD1)
Read-out: enzyme activity
Action: inhibitor
Concentration: 20 µM
Notes: hit confirmation, with DTT
SMILES | inhibition [%]
Oc1cccc(-c2c3nc(c(-c4cccc(O)c4)c4ccc([nH]4)c(-c4cccc(O)c4)c4nc(c(-c5cccc(O)c5)c5ccc2[nH]5)CC4)C=C3)c1 | -16.6
O=C1C2CC=CCC2C(=O)N1SC(Cl)(Cl)Cl (centres unmarked) | 9.8
CC(=O)[O][Pt]([NH2])([Cl])([Cl])([NH]C1CCCCC1)[O]C(C)=O | -13.2

Some of these lines once more (sample 4):
Structure (SMILES) | inhibition
Cc1[nH]c2ccc(Cl)cc2c1C1=CCNCC1 | -1.31%
CC(=O)NCCc1c[nH]c2ccccc12 | -20%
COC(=O)[C@H](CC(C)C)NC(=O)[C@@H](N)CC(C)C | -6.8%
